Results pooled from the literature.
Lines come from different studies, so protocols differ. ± gives the spread as reported.
Nuclear receptor subfamily 2 group C member 2 ligand-binding domain: Nuclear receptor subfamily 2 group C member 2, ligand-binding domain (Homo sapiens, UniProt P49116)
UniProt P49116, sequence (whole entry, looked up): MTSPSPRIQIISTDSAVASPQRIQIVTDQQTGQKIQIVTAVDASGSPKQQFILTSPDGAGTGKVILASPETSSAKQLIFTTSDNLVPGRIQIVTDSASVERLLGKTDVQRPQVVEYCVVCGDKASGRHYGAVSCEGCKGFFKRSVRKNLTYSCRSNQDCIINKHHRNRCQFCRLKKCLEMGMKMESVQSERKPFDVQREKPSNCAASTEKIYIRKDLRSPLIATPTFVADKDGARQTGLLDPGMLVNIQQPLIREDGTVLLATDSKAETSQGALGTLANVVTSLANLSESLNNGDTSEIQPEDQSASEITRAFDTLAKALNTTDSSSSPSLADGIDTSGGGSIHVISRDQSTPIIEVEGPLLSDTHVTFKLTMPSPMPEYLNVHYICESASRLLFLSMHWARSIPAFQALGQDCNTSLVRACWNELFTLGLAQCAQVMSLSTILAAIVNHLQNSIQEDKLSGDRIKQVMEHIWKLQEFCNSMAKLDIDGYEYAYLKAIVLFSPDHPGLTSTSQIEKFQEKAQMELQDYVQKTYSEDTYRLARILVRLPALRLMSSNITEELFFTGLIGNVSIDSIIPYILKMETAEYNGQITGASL
EGFR: Epidermal growth factor receptor (EGFR, Homo sapiens, UniProt P00533)

| SMILES | target | assay | system | conditions | endpoint | value |
| --- | --- | --- | --- | --- | --- | --- |
| Cc1nnc(NS(=O)(=O)c2ccc(N)cc2)s1 | Nuclear receptor subfamily 2 group C member 2 ligand-binding domain | SPR imaging | – | – | Kd | 0.0552 nM |
| CC(C)(C)n1nc(-c2cnc3cc(OC4CC4)ccc3c2)c(C(N)=O)c1N | EGFR | – | – | – | IC50 | 1030 nM |
| CO[C@@H]1[C@@H](OC(N)=O)[C@@H](O)[C@H](Oc2ccc3c(O)c(NC(=O)c4ccc(O)c(CC=C(C)C)c4)c(=O)oc3c2C)OC1(C)C | Nuclear receptor subfamily 2 group C member 2 ligand-binding domain | SPR imaging | – | – | Kd | 122 nM |
| C=CC(=O)Nc1cccc(Sc2nc(Nc3ccc(N4CCN(C)CC4)cc3)ncc2Cl)c1 | Epidermal growth factor receptor, with GRB2 (EGFR, Homo sapiens, UniProt P00533) | EGFR-GRB2 interaction, NanoBiT | cells expressing EGFR wild type | 1 h, added: EGF 300 ng/mL | IC50 | 512 nM |
| CC(C)Cc1ccc(-c2nn(-c3ccc(S(C)(=O)=O)cc3)cc2/C=N/N=c2\[nH]c(-c3ccc([N+](=O)[O-])cc3)cs2)cc1 | EGFR | kinase activity, inhibitor | – | – | IC50 | 388 ± 17 nM |
| C=CC(=O)Nc1cc(Nc2nccc(Nc3cc(Cl)c(F)cc3C(C)(C)O)n2)c(OC)cc1N1CC[C@@H](N(C)C)C1 | EGFR | EGFR phosphorylation, HTRF | HaCaT^WT cells | 2 h, added: EGF | IC50 | 349 nM |
| COC(=O)/C=C/c1ccc2ncnc(Nc3cccc(C(F)(F)F)c3)c2c1 | EGFR | enzyme activity, inhibitor | – | – | IC50 | 19.1 nM |
| C=CC(=O)Nc1cc(Nc2ncc(C(=O)OC(C)C)c(-c3cn(C)c4ccccc34)n2)c(OC)cc1N(C)CCN(C)C | EGFR | EGFR phosphorylation, HTRF | H2073^WT cells | 2 h, added: EGF | IC50 | 68 nM |
| OCc1ccc(Nc2ccc3ncnc(Nc4cccc(C(F)(F)F)c4)c3c2)cc1 | EGFR | enzyme activity, inhibitor | – | – | IC50 | 8.71 nM |
| COc1ccc(-c2nn(-c3ccc(S(C)(=O)=O)cc3)cc2/C=N/N=c2\[nH]c(-c3ccc(Br)cc3)cs2)cc1 | EGFR | kinase activity, inhibitor | – | – | IC50 | 43 ± 2 nM |

Excerpt of the above:
| SMILES | target | assay | system | conditions | endpoint | value |
| --- | --- | --- | --- | --- | --- | --- |
| COc1ccc(-c2nn(-c3ccc(S(C)(=O)=O)cc3)cc2/C=N/N=c2\[nH]c(-c3ccc(Br)cc3)cs2)cc1 | EGFR | kinase activity, inhibitor | – | – | IC50 | 43 ± 2 nM |
